Assay results of several laboratories.
Each line is one published result; not all experiments were run side by side. ± gives the spread as reported.

With `CC(C)C[C@@H]1NC(=O)[C@@H](Cc2ccccc2)NC(=O)[C@H](CCN)NC(=O)[C@@H](NC(=O)[C@H](CN)NC(=O)[C@@H](NC(=O)C(CCN)c2ccc(Cl)cc2)[C@@H](C)O)CCNC(=O)[C@H]([C@@H](C)O)NC(=O)[C@H](CCN)NC(=O)[C@H](CCN)NC1=O` (stereo partly drawn) the tissue concentration was 533000 ng/g (CD-1 mouse male, kidney; subcutaneous, 17.2 mg/kg, 4 h).
For `CN1C(=O)[C@@H](Cc2ccc(O)c(I)c2)NC(=O)CNC(=O)[C@H](Cc2ccc3ccccc3c2)NC(=O)[C@H](CCCNC(=N)N)NC(=O)[C@H]1CCCNC(=O)c1ccc(CNC(=O)CN2CCN(CC(=O)O)CCN(CC(=O)O)CC2)cc1` [fluorine-18 labelled], the tissue ratio was 2 ± 0.3 (CB17 SCID mouse, female, Daudi lymphoma xenograft; intravenous, 300 kBq, 1 h; reference: tumour over liver).
`CC(C)[C@H](NC(=O)[C@@H]1CCCN1C(=O)[C@H](CCCNC(=N)N)NC(=O)[C@H](CS)NC(=O)[C@H](Cc1c[nH]c2ccccc12)NC(=O)[C@H](CCCNC(=N)N)NC(=O)[C@@H](Cc1ccccc1)NC(=O)[C@H](Cc1c[nH]cn1)NC(=O)[C@H](CCC(=O)O)NC(=O)[C@H](CS)NC(=O)[C@H](CS)NC(=O)COCCOCCNC(=O)[C@@H]1CC(=O)N[C@@H](CCCNC(=N)N)C(=O)NCC(=O)N[C@@H](CC(=O)O)C(=O)N[C@H](Cc2ccc(O)cc2)C(=O)N1)C(N)=O` [technetium-99m labelled] gave a tissue uptake of 1.71 ± 0.25 %ID/g (nude mouse, M21 melanoma xenograft, tumor; intravenous, 2 h).
`CCCCCCC(CN)C(=O)N[C@H](C(=O)N[C@@H](CN)C(=O)N[C@H]1CCNC(=O)[C@H]([C@@H](C)O)NC(=O)[C@H](CCN)NC(=O)[C@H](CCN)NC(=O)[C@H](CC(C)C)NC(=O)[C@@H](Cc2ccccc2)NC(=O)[C@H](CCN)NC1=O)[C@@H](C)O` (stereo partly drawn) gave a tissue concentration of 473000 ng/g (CD-1 mouse male, kidney; subcutaneous, 17.2 mg/kg, 4 h).
`[11CH3]c1ccc2nc(C3CCC3)n(-c3ccc4[nH]ncc4c3)c2n1` — result for “tissue uptake of radioactivity”: at least 5 %ID/g (ddY mouse, lung; dose not given, 1 min post injection).
`CCCCCCC(CCN)C(=O)N[C@H](C(=O)N[C@@H](CN)C(=O)N[C@H]1CCNC(=O)[C@H]([C@@H](C)O)NC(=O)[C@H](CCN)NC(=O)[C@H](CCN)NC(=O)[C@H](CC(C)C)NC(=O)[C@@H](Cc2ccccc2)NC(=O)[C@H](CCN)NC1=O)[C@@H](C)O` (stereo partly drawn) has a tissue concentration of 224000 ng/g (CD-1 mouse male, kidney; subcutaneous, 17.2 mg/kg, 4 h).
`COC(=O)c1ccc(-c2cn(Cc3cc(Cl)ccc3O[11CH3])nn2)cc1` has a tissue uptake of 4.28 %ID/cc (PET/CT; C57BL/6 mouse, blood; 2 min).
`CCCC[C@H](NC(=O)CN1CCC(NC(=O)CN2CCN(CC(=O)O)CCN(CC(=O)O)CCN(CC(=O)O)CC2)CC1)C(=O)N[C@H]1CC(=O)NCCCC[C@@H](C(N)=O)NC(=O)[C@H](Cc2c[nH]c3ccccc23)NC(=O)[C@H](CCCNC(=N)N)NC(=O)[C@@H](Cc2ccccc2)NC(=O)[C@H](Cc2c[nH]cn2)NC1=O` [gallium-68 labelled] gave a tissue uptake of 1.5 ± 1.4 %ID/g (C57BL/6J mouse, male, B16-F10 tumour, adrenal glands; 1 h p.i., blocking, added: 100 µg non-radioactive blocking agent).
`O=C(O)CCC(NP(=O)(O)OCCC[C@@H](NC(=O)CC[C@H](NC(=O)CCCCCNC(=O)c1ccc([18F])cc1)C(=O)O)C(=O)O)C(=O)O` (stereo partly drawn) has a tissue uptake of 0.039 ± 0.006 %ID/g (mouse, CWR22Rv1 xenograft, heart; dose not given, 4 h, blocking agent pre-dosed).

Excerpt of the above:
`[11CH3]c1ccc2nc(C3CCC3)n(-c3ccc4[nH]ncc4c3)c2n1` — result for “tissue uptake of radioactivity”: at least 5 %ID/g (ddY mouse, lung; dose not given, 1 min post injection).
